Results collected from several papers.
Lines come from different studies, so protocols differ. Several values in a cell are separate wells, animals, samples, runs or records. ± gives the spread as reported.
Chain of UniProt Q12884 (whole entry, looked up): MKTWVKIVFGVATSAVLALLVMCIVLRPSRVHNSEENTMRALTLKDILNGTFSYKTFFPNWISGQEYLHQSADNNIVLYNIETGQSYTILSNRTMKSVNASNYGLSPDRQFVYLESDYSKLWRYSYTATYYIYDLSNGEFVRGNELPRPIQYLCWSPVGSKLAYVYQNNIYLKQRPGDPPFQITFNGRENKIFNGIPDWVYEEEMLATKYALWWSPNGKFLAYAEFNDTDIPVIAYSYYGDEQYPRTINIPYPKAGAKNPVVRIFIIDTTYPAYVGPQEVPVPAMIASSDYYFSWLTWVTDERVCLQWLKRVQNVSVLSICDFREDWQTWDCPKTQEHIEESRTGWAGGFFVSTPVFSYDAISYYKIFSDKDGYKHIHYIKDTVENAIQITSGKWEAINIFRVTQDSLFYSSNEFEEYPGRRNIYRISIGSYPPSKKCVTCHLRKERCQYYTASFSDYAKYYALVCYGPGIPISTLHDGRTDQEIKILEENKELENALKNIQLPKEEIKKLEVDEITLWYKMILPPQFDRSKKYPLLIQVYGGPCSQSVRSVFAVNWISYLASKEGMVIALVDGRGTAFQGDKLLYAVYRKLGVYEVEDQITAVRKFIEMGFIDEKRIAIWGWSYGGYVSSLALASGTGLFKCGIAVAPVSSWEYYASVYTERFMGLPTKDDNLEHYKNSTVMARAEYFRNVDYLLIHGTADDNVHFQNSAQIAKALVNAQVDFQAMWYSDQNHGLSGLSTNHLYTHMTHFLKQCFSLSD
Chain of UniProt P06276 (whole entry, looked up): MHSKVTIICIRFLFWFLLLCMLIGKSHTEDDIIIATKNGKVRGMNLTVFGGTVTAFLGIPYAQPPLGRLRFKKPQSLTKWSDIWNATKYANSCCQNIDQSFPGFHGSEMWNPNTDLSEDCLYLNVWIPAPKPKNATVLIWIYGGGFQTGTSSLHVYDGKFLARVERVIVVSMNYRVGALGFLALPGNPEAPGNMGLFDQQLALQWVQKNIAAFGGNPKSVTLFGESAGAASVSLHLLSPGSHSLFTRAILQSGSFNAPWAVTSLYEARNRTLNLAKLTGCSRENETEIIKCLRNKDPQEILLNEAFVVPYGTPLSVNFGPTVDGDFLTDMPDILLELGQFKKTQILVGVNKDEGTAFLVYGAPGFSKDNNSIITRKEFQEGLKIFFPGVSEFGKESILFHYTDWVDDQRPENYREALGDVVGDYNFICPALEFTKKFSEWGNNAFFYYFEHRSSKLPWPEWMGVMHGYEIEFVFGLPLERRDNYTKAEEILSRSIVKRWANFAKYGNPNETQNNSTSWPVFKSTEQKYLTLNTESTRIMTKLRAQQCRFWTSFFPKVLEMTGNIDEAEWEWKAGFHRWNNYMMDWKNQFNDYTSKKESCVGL
Chain of UniProt P19784 (whole entry, looked up): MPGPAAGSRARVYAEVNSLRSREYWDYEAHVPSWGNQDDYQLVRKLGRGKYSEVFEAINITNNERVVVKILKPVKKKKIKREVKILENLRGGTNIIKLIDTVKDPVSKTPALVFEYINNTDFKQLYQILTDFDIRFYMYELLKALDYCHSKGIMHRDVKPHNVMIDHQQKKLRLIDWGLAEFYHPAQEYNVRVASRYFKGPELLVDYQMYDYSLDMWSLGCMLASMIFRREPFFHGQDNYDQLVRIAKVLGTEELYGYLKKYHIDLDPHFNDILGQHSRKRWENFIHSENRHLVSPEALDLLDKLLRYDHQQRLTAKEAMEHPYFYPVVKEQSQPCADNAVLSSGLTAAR
Chain of UniProt P32876 (whole entry, looked up): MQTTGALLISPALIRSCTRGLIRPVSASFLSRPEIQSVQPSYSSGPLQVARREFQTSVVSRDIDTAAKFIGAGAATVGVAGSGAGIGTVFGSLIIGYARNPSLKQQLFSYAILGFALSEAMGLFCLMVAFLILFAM
Chain of UniProt P20782 (whole entry, looked up): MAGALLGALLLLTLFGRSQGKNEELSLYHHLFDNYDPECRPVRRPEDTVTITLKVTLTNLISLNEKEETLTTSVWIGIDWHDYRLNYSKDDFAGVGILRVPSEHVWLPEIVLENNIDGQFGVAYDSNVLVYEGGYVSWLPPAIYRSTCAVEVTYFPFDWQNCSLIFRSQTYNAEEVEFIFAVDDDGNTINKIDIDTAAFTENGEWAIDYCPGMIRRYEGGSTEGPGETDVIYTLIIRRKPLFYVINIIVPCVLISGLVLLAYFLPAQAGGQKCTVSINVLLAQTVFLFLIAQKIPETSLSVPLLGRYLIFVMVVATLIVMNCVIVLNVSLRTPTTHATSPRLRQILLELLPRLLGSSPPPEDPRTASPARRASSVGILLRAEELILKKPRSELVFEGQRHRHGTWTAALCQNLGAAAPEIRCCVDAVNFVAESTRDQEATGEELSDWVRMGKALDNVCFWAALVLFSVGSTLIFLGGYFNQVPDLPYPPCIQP
Chain of UniProt P00742 (whole entry, looked up): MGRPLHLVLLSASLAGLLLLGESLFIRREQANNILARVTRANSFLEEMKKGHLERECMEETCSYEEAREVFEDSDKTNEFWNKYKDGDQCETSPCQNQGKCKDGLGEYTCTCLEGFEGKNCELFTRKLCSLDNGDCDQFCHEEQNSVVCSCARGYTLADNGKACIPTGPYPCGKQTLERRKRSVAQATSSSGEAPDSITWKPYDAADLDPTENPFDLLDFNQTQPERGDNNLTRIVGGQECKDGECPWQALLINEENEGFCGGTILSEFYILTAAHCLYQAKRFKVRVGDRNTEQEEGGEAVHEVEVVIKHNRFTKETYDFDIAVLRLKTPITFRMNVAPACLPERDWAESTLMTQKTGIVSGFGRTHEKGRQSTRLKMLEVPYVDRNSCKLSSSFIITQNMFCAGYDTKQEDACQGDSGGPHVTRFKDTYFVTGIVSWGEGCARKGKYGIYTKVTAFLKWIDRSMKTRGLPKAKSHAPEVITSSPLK
Chain of UniProt Q8DR59 (whole entry, looked up): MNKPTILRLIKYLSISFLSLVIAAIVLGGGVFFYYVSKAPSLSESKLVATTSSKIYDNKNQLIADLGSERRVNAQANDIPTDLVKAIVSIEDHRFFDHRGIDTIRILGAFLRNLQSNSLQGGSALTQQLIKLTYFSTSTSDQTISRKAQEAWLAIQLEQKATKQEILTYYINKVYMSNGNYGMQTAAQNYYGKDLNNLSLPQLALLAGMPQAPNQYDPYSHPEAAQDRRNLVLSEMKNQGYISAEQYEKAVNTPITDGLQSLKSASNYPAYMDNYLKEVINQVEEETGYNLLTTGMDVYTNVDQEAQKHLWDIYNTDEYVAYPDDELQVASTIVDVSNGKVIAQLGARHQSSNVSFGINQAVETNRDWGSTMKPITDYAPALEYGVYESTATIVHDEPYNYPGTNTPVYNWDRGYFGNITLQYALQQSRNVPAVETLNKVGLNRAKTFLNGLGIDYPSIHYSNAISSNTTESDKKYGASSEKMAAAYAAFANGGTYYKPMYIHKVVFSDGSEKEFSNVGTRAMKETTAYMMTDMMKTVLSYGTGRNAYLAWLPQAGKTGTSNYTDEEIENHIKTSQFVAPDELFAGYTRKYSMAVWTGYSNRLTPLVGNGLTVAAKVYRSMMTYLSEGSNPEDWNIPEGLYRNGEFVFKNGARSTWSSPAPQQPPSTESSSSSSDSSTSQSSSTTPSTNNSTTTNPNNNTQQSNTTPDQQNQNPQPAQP
Chain of UniProt P15823 (whole entry, looked up): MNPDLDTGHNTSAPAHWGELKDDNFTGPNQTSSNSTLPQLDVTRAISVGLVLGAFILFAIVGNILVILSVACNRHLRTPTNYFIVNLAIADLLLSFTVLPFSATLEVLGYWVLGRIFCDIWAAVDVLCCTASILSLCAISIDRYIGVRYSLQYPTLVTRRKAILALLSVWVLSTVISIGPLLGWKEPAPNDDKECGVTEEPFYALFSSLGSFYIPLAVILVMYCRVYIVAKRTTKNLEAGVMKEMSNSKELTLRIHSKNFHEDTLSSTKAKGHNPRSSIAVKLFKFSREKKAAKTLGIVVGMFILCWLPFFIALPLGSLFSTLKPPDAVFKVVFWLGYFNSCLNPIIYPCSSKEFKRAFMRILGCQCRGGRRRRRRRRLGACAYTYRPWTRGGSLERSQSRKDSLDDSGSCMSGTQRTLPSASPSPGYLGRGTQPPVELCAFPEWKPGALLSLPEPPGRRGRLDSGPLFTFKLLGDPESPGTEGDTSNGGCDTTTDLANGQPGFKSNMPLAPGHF
Chain of UniProt P04756 (whole entry, looked up): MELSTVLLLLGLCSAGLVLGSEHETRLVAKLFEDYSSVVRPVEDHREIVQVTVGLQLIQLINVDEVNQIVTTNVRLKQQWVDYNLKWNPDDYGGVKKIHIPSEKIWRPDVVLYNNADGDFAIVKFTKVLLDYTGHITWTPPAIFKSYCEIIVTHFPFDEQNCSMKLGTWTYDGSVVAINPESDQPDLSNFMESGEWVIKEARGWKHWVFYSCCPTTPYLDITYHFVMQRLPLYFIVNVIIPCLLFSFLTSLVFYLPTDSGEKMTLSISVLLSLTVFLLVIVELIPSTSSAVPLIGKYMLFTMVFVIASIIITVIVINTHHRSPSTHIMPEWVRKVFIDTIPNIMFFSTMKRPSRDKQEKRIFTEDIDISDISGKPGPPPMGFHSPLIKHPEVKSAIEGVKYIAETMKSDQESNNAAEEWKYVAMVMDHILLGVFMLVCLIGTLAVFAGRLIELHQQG
Chain of UniProt Q06151 (whole entry, unmodified, looked up): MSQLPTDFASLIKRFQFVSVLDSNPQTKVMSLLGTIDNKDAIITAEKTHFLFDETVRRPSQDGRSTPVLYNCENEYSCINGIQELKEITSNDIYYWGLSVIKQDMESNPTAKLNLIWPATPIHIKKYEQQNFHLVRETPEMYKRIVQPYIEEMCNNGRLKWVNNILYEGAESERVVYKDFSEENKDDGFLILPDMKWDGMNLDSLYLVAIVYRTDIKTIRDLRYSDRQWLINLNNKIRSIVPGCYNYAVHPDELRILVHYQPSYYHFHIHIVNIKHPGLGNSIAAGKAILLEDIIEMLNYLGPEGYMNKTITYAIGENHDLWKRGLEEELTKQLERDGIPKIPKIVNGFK

| SMILES | target or system | assay | system | setting | scale | measurement | result |
| --- | --- | --- | --- | --- | --- | --- | --- |
| COc1cc(CCC(=O)N2CCC(Cc3ccccc3)CC2)ccc1OC(=O)N1CCOCC1 | Cholinesterase (BCHE, Equus caballus, UniProt P81908) | Ellman | equine serum BuChE |  | reference: AChE IC50 over BuChE IC50 | selectivity ratio | 1.6 |
| C[C@H]1CN(c2n[nH]c3nc(N[C@H]4CC[C@H](NS(=O)(=O)CCC(F)(F)F)CC4)ncc23)CCO1 | AKT2 (Homo sapiens, UniProt P31751) | inhibitor, Kinobeads competition profiling |  | 0.8 µM | reference: vehicle | relative abundance | 1.19 |
| COc1cc2c3cc1Oc1cc(ccc1O)C[C@@H]1c4c(cc(OC)c(O)c4Oc4ccc(cc4)C[C@@H]3N(C)CC2)CC[N+]1(C)C | Chrnd/Chrna1/Chrne (Mus musculus, UniProt P02716+P04756+P20782) |  | mouse diaphragm | 0.1 µM, AChE intact |  | free receptor reduction | 70% |
| O=C1NC(=O)[C@](CNC(=O)c2cnn(-c3ccccc3)n2)(C2CC2)N1 | F10 (Homo sapiens, UniProt P00742) | inhibitor |  | concentration not given |  | activity | inactive |
| CN(C)CCC(c1ccccc1)c1ccccn1 (stereo not drawn) | Plasmodium falciparum |  | Dd2 |  |  | IC50 | 10 µM |
| O=C(Nc1cnccc1Cl)N1CCN(Cc2ccc3c(c2)OC(F)(F)O3)CC1 | Abhydrolase domain-containing protein 11 (Rattus norvegicus, UniProt D3ZXK4) | probe labelling, inhibitor, competitive ABPP with azido-FP probe, measured: Abhd11 | rat brain soluble fraction | 1 µM |  | inhibition | 7.9% |
| Nc1ncc(-c2nc(N3CCOCC3)nc(N3CCOCC3)n2)c(C(F)F)n1 | BUB1 (Homo sapiens, UniProt O43683) | KINOMEscan |  | 10 µM |  | remaining binding | 99% |
| NC(=O)c1cc[n+](CC2=C(C(=O)O)N3C(=O)[C@@H](NC(=O)[C@@H](c4ccccc4)S(=O)(=O)[O-])[C@H]3SC2)cc1 | Penicillin-binding protein 1A (pbpA, Streptococcus pneumoniae, UniProt Q8DR59) | inhibitor |  |  |  | kinact/KI | 85 ± 6.5 M⁻¹ s⁻¹ |
| CN(CC(=O)O)C(=N)NP(=O)(O)O | CKMT1A (Homo sapiens, UniProt P12532, E265D) | substrate, Kinase-Glo luminescence |  | pH 7.0, reverse reaction, E227D mutant, together with: second substrate in excess |  | kcat | 0.006 ± 0.0002 s⁻¹ |
| c1cc(N2CCNCC2)c2cc[nH]c2c1 | CHRM4 (Homo sapiens, UniProt P08173) | ERK1/2 phosphorylation, agonist | CHO cells |  |  | Emax | < 10% |
| C[n+]1cn([C@@H]2O[C@H](COP(=O)([O-])OP(=O)(O)OP(=O)(O)OC[C@H]3O[C@@H](n4cnc5c(=O)[nH]c(N)nc54)[C@H](O)[C@@H]3O)[C@@H](O)[C@H]2O)c2nc(N)[nH]c(=O)c21 | m7GpppX diphosphatase, C-terminal domain (DCS1, Saccharomyces cerevisiae, UniProt Q06151, H268N) | binding, ITC |  |  |  | ΔH | -10.8 kcal/mol |
| CC1(C)CC(=O)c2c(nc3c(c(C#N)cn3Cc3ccccc3)c2-c2ccc([N+](=O)[O-])cc2)C1 | Gag-Pol polyprotein, reverse transcriptase (gag-pol, Human immunodeficiency virus type 1 group M subtype B, UniProt P04585) | DNA polymerase activity, inhibitor, FRET |  |  | reference: mutant over wild type RT | IC50 fold change | 1.9 |
| CCOP(=S)(OCC)O/N=C(\C#N)c1ccccc1 | Cholinesterase (BCHE, Homo sapiens, UniProt P06276) |  |  | concentration not given, Triton |  | efficacy | -98.3 ± 4.77% |
| O=C(c1ccc(Cl)cc1)N1CCN2C(=O)N(OC(=O)N3CCOc4ccccc43)C(=O)C2C1 (stereo not drawn) | FAP (Homo sapiens, UniProt Q12884) | MS-based ABPP | SW-620 conditioned medium | 10 µM, 1 h, 37 °C | reference: compound over DMSO, lower = more inhibition | peptide ratio | 1.14 and 0.77 |
| CC1(C)C(C=C(Cl)Cl)C1C(=O)OCc1cccc(Oc2ccccc2)c1 (stereo not drawn) | uncharacterized protein (Anopheles coluzzii, UniProt A0A6E8VQK1) | enzyme activity, inhibitor | Sf9 cell homogenate | 139.5 µM, 0.1667 h, together with: α-naphthyl acetate substrate | reference: no inhibitor | remaining activity | 39.5% |
| CN1CCN(c2cc(-c3ccncc3)c(-c3ccc4ccccc4c3)nn2)CC1 | GRM1 (Homo sapiens, UniProt Q13255) | agonist, FLIPR |  | 12.5 µM |  | activation | -0.2% |
| CC[C@H](C)[C@H](NC(C)=O)C(=O)N[C@@H](CCC(=O)O)C(=O)N[C@H](C(=O)N[C@H](C=O)CC(=O)O)[C@@H](C)O | Caspase-1 (CASP1, Homo sapiens, UniProt P29466) |  |  |  |  | Hill slope | -1.17 |
| Cc1cccc(C)c1OCC(=O)N[C@@H](Cc1ccccc1)[C@H](O)C(=O)N1CSC(C)(C)[C@H]1C(=O)N[C@H]1c2ccccc2C[C@H]1O | Gag-Pol polyprotein, protease (gag-pol, Human immunodeficiency virus type 1 group M subtype B, UniProt P04585) | protein stability, GdnHCl denaturation, Trp fluorescence | HIV-1 | 2.5 µM |  | transition midpoint C1/2 | 3.4 M |
| CC(C)C[C@H](NC(=O)[C@H](CCC1CCCCC1)NC(=O)[C@@H]1CCCN1C(=O)c1ccc(F)cc1)C(=O)NC(C)(C)C(=O)N[C@@H](CC(C)C)C(=O)N[C@@H](CC(C)C)C(=O)NC(C)(C)C(=O)NC(C)(C)C(=O)NCCC(=O)NC1(CN(C)C)CCC1 | ATP synthase F(0) complex subunit C1, mitochondrial (ATP5MC1, Bos taurus, UniProt P32876) | DCCD labeling competition |  | 1 µM, 5 min preincubation, 5 min labeling |  | DCCD-modified c-subunits | > 60% |
| C[N+](C)(C)CCCCCNCC12CC3CC(CC(C3)C1)C2 | Plasmodium falciparum |  | W2 |  |  | IC50 | 5.01 µM |
| CCCCC/C=C\C/C=C\C/C=C\C/C=C\CCCC(=O)NCCO | Trpv1 (Mus musculus, UniProt Q704Y3) | ion current, agonist, whole-cell patch clamp | HEK293 |  |  | Hill coefficient | 3.84 ± 0.88 |
| COc1ccc2[nH]c3c(c2c1)CCN(C)CC3.Cl | Chrna7 (Rattus norvegicus, UniProt Q05941) | ion current, inhibitor, two-electrode voltage clamp | Xenopus laevis oocytes, rat | together with: 100 µM acetylcholine |  | Hill coefficient | 1.7 ± 0.2 |
| O=C(Nc1cccnn1)N1CCC(=Cc2cccc(Oc3ccc(C(F)(F)F)cn3)c2)CC1 | Adra1b (Rattus norvegicus, UniProt P15823) | binding |  | 10 µM, together with: [3H]prazosin |  | inhibition | 8% |
| COc1ccc(N2C(=O)N(c3c(C)cccc3Cl)Cc3cnc(Nc4ccc(C5CCN(C)CC5)cc4OC)nc32)nc1 | GRK5 (Homo sapiens, UniProt P34947) | kinase activity |  | 0.5 µM |  | inhibition | -2% |
| CN(C(=O)n1cnc(-c2ccc[n+]([O-])c2)c1)C1CCCCC1 | BAR/IMD domain-containing adapter protein 2 (Baiap2, Rattus norvegicus, UniProt Q6GMN2) | competitive ABPP with azido-FP probe, measured: BAIAP2 | rat brain membrane fraction | 100 µM, unit not given | reference: DMSO | probe labelling | -2.2 |
| CC(=O)N[C@@H](CCC(N)=O)C(=O)N[C@@H](Cc1ccccc1)C(=O)N[C@@H](CCCNC(=N)N)C(=O)CN1CCCCC1 | TMPRSS2 (Homo sapiens, UniProt O15393) | enzyme activity, inhibitor |  | 1 nM, 1% DMSO | reference: vehicle | remaining activity | 103% |
| [2H]c1c([2H])c([C@]2([2H])CCCN2C(=O)C(C)(C)Oc2ccc3cn[nH]c3c2)c([2H])c([2H])c1C([2H])([2H])[2H] | CSNK2A2 (Homo sapiens, UniProt P19784) | KINOMEscan |  | 1 µM | reference: DMSO control | remaining binding | 93% |
| CCN(CC)CCNc1ccc(CO)c2sc3ccccc3c(=O)c12 | Cholinesterase (BCHE, Homo sapiens, UniProt P06276) |  |  | concentration not given, Triton |  | efficacy | -104 ± 9.73% |
| CC1=CC(=O)C(C)=C(C)C1=O | Reaction center protein M chain, QA site (pufM, Cereibacter sphaeroides, UniProt P0C0Y9) | charge recombination | Rhodobacter sphaeroides, LDAO detergent solution | pH 7.8, 298 K, quinone reconstituted in QA site |  | P+QA− recombination rate | 1.47 s⁻¹ |
| CC(C)NC[C@@H](C(=O)N1CCN(c2ncnc3c2[C@H](C)C[C@H]3Cl)CC1)c1ccc(Cl)cc1 | AKT1 (Homo sapiens, UniProt P31749) | inhibitor, optical reporter | mouse AAV-transduced, brain striatum | oral, 100 mg/kg |  | time to peak response | 4 h |
